# Measured values of several laboratories.
# Each line is one published result; not all experiments were run side by side. Several values in a cell are separate wells, animals, samples, runs or records. ± marks the error that the study gave.
# ABCB1: ATP-dependent translocase ABCB1 (ABCB1, Homo sapiens, UniProt P08183)
# Sequence of UniProt P08183 (whole entry, looked up): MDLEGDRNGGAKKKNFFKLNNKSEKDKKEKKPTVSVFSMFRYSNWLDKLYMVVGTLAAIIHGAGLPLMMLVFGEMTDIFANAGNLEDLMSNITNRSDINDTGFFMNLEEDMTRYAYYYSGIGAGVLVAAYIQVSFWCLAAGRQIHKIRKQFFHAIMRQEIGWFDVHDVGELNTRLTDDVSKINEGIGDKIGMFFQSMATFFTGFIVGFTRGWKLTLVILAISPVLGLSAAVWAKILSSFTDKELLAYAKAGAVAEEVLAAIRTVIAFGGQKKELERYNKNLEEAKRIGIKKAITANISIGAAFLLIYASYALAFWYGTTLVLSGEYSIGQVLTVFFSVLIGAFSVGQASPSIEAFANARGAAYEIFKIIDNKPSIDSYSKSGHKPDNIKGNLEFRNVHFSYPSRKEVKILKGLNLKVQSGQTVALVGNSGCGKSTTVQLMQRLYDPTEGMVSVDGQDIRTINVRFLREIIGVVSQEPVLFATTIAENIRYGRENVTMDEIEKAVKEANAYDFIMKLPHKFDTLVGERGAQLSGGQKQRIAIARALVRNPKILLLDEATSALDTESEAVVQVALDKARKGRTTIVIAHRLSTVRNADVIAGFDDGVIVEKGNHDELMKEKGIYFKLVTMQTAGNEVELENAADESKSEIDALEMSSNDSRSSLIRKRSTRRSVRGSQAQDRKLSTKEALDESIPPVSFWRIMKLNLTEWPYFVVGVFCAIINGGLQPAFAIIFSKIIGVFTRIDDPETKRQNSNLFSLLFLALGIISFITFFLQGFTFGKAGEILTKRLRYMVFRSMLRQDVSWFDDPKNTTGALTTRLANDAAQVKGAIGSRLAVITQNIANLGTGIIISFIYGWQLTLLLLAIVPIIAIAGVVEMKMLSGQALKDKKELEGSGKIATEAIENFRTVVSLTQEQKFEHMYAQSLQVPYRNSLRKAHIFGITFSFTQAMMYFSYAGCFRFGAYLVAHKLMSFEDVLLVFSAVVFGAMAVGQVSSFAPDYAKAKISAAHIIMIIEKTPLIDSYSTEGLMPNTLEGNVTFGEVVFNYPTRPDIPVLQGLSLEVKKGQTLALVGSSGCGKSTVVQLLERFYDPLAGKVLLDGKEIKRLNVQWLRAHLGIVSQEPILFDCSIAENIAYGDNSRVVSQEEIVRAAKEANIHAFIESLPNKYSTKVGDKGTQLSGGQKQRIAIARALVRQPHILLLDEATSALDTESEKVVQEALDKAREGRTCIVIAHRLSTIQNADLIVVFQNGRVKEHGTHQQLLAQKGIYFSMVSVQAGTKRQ
# Cytochrome P450 2A13: Cytochrome P450 2A13 (Homo sapiens, UniProt Q16696)
# Sequence of UniProt Q16696 (whole entry, looked up): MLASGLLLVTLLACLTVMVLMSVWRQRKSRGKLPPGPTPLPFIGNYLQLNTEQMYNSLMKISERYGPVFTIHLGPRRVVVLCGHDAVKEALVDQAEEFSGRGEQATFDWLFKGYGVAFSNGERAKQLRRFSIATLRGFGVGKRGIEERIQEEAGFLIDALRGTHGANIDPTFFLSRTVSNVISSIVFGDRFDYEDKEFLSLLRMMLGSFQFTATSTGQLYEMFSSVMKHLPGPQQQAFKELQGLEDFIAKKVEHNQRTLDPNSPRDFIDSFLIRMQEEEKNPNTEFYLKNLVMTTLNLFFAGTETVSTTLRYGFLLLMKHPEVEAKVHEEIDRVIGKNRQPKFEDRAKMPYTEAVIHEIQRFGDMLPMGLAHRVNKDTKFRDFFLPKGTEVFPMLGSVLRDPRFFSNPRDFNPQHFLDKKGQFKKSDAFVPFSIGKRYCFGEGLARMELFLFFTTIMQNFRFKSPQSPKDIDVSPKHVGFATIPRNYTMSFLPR
# Nuclear receptor subfamily 1 group I member 3: Nuclear receptor subfamily 1 group I member 3 (Homo sapiens, UniProt Q14994)
# Sequence of UniProt Q14994 (whole entry, looked up): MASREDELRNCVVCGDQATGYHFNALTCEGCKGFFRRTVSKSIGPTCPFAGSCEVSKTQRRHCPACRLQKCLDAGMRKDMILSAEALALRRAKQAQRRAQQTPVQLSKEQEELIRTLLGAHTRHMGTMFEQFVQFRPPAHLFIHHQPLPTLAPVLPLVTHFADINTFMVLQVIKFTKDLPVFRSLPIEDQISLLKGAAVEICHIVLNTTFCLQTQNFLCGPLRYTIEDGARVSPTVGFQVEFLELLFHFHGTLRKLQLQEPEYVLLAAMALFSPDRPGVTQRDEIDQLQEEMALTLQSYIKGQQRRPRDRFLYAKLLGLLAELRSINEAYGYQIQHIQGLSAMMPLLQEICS
# Sequence of UniProt P20815 (whole entry, looked up): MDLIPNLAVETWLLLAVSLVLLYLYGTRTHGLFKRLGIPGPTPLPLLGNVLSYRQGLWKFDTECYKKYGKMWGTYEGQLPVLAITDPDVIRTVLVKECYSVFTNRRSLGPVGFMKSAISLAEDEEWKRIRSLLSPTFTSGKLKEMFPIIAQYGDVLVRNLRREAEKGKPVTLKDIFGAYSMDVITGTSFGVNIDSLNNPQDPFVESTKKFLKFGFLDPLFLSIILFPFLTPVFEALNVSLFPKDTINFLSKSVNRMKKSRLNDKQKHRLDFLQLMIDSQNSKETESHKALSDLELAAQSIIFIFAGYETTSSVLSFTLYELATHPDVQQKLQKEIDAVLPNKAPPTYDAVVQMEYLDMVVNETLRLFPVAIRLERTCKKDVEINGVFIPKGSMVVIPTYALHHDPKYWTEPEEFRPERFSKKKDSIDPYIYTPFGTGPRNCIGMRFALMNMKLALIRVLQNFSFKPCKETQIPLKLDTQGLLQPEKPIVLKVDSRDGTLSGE
# Sequence of UniProt P22413 (whole entry, looked up): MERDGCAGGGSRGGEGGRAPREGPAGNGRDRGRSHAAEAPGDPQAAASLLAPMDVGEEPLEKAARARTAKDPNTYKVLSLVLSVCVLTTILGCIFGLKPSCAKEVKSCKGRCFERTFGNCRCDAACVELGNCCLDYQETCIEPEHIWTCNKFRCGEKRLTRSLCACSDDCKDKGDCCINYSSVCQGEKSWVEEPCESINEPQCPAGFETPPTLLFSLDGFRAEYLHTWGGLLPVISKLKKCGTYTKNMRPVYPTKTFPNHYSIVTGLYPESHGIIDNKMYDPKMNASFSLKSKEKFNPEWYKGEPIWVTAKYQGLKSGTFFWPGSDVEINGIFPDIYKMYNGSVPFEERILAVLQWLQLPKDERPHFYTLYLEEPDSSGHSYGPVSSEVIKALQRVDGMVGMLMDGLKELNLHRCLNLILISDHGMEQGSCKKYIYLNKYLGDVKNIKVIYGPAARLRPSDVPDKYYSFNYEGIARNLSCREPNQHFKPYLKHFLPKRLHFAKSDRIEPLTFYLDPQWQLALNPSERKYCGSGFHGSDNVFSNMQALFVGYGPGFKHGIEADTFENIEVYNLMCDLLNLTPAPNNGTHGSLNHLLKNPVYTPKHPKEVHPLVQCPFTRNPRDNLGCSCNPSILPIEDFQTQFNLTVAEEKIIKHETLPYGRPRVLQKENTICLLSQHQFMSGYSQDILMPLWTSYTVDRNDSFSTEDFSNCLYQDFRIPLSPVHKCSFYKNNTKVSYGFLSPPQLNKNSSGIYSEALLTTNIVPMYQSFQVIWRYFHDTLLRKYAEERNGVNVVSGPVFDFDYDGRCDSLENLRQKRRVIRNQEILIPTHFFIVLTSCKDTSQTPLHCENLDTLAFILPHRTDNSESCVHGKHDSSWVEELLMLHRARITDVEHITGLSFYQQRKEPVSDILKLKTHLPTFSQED
# Sequence of UniProt P16662 (whole entry, looked up): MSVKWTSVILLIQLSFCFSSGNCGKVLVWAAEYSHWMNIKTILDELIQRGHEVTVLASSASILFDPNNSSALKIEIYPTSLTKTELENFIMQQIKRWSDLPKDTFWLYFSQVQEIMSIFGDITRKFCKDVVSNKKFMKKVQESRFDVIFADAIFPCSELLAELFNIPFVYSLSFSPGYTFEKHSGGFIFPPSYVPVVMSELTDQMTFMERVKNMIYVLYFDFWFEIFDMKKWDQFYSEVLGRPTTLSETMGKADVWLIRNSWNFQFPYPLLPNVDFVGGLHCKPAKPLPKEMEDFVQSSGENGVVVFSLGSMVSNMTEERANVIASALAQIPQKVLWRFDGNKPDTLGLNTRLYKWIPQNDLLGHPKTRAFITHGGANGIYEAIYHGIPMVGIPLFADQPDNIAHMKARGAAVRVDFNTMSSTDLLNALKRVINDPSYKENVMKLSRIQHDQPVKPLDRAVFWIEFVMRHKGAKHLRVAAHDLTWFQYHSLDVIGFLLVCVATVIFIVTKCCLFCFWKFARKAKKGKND
# Sequence of UniProt P10632 (whole entry, looked up): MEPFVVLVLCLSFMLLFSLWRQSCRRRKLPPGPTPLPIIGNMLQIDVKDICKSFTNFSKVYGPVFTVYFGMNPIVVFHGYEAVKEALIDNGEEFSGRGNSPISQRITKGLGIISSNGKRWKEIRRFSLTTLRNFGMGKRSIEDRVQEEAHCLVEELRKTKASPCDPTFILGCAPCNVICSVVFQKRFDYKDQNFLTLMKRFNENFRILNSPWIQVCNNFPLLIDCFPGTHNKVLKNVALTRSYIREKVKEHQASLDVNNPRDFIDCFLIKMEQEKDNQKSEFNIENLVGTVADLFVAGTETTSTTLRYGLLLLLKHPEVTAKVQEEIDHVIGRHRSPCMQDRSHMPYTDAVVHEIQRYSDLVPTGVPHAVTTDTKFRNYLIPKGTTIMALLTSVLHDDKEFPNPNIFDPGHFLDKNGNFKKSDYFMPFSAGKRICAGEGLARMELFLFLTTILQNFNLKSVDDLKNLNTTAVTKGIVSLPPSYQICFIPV
# Sequence of UniProt P10619 (whole entry, looked up): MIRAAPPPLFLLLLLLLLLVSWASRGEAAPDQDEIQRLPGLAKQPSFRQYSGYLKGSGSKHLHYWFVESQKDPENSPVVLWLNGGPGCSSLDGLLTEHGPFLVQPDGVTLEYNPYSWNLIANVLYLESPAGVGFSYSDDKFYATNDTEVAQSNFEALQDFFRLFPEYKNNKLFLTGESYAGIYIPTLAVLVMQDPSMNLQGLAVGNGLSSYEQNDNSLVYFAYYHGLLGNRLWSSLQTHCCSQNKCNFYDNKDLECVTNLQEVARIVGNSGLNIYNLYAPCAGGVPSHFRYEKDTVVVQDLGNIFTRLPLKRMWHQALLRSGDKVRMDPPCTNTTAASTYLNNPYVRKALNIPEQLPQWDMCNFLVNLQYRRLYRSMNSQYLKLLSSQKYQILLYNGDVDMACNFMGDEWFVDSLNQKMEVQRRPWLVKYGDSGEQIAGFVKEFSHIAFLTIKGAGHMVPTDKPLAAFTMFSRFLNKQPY
Compound,target,assay,system,conditions,how to read,measurement,result
O=S(=O)(NCCNC/C=C/c1ccc(Br)cc1)c1cccc2cnccc12,PKA,inhibitor,mouse zygotes,"20 µM, injection, hCG, 48 h post, early embryonic development",,dead embryos,0% and 5%
CN(C)C1CCN(C(=O)c2cc3ccccc3n2CC2CCCCC2)CC1,"CYP3A, human",,,"10 µM, 5 (unit not given)",,inhibition,41.7%
Cn1nccc1[C@]1(CNC(=O)c2ccc(F)c(F)c2-c2ccc(C(F)(F)F)cc2)NC(=O)NC1=O,"Cytochrome P450 2C8 (CYP2C8, Homo sapiens, UniProt P10632)",,human liver microsomes,with: amodiaquine,no inhibition up to value,IC50,> 20 µM
COc1cc2c(c(OC)c1OC)-c1ccc(OC)c(=O)cc1[C@@H](NC(C)=O)CC2,ABCB1,"transport, inhibitor",,"100 µM, 5 (unit not given), pH 7, with: NMN",,inhibition,70.5%
c1nc[nH]n1,"Cytochrome P450 2A6 (CYP2A6, Homo sapiens, UniProt P11509)",binding,,,,Kd,283 µM
CC(=O)c1cc2ccc3cccc4ccc(c1)c2c34,Cytochrome P450 2A13,"enzyme activity, inhibitor",,"20 min, pH 7.4",,IC50,< 20 µM
Nc1nc2c(ncn2[C@@H]2O[C@@H]3COP(O)(=S)O[C@H]4[C@@H](O)[C@H](n5cnc6c(N)ncnc65)O[C@@H]4COP(=O)(S)O[C@@H]2[C@@H]3O)c(=O)[nH]1 (some centres unmarked),"Ectonucleotide pyrophosphatase/phosphodiesterase family member 1 (ENPP1, Homo sapiens, UniProt P22413)",substrate,,8 h,,degradation,~20%
C#CCOCc1ccccc1-c1ccccc1,Cytochrome P450 2A13,"enzyme activity, inhibitor",,with: 10 µM coumarin,,IC50,15 to 80 µM
CCCCc1nc(Cl)c(CO)n1Cc1ccc(-c2ccccc2-c2nn[nH]n2)cc1,ABCB1,"transport, inhibitor",,"100 µM, 5 (unit not given), pH 7, with: NMN",,inhibition,43.9%
Cc1cc2nc3c(=O)[nH]c(=O)nc-3n(C[C@H](O)[C@H](O)[C@H](O)COP(=O)(O)O)c2cc1C,"Iodotyrosine deiodinase (Haliscomenobacter hydrossis, UniProt F4KU78, R38K)","bound cofactor redox, redox titration",,"pH 7.4, 25 °C, anaerobic, no substrate",,midpoint potential,-208 ± 13 mV
COc1cc(Nc2ncc(F)c(Nc3ccc4c(n3)NC(=O)C(C)(C)O4)n2)cc(OC)c1OC,"Thioredoxin reductase 1, cytoplasmic (Txnrd1, Rattus norvegicus, UniProt O89049)",inhibitor,,,,IC50,> 10 µM
CC[C@H]1OC(=O)[C@H](C)[C@@H](O[C@H]2C[C@@](C)(OC)[C@@H](O)[C@H](C)O2)[C@H](C)[C@@H](O[C@@H]2O[C@H](C)C[C@H](N(C)C)[C@H]2O)[C@](C)(O)C[C@@H](C)CN(C)[C@H](C)[C@@H](O)[C@]1(C)O,ABCB1,"transport, inhibitor",,"50 µM, with: NMN",,inhibition,74%
C[C@@H]1CC[C@]2(C(=O)O)CC[C@]3(C)C(=CC[C@@H]4[C@@]5(C)CC[C@H](O)[C@@](C)(CO)[C@@H]5CC[C@]43C)[C@@H]2[C@]1(C)O,CYP3A4/5,"midazolam 1'-hydroxylation, mechanism-based inhibitor, probe cocktail incubation",pooled human liver microsomes,"5 µM, 20 min, 30 min pre-incubation, with: midazolam 1.535 µM",,remaining activity,85.1%
Clc1ccc(Cl)c(-c2ccccc2Cl)c1,Nuclear receptor subfamily 1 group I member 3,"CYP2B6 mRNA induction, activator, qRT-PCR",differentiated HepaRG,24 h,baseline: phenobarbital,EC25,2 µM
CCS(=O)(=O)N1CC(CC#N)(n2cc(-c3ncnc4[nH]ccc34)cn2)C1,ABCB1,"transport, inhibitor",,"50 µM, with: NMN",,inhibition,22.3%
CC(C)CC(=O)OC[C@H]1O[C@@](C#N)(c2ccc3c(N)ncnn23)[C@H](O)[C@@H]1O,"Cytochrome P450 3A5 (CYP3A5, Homo sapiens, UniProt P20815)",metabolic stability,recombinant enzyme,1 µM,,half-life,20 ± 0.784 min
CCC(CC)COC(=O)[C@H](C)N[P@](=O)(OC[C@H]1O[C@@](C#N)(c2ccc3c(N)ncnn23)[C@H](O)[C@@H]1O)Oc1ccccc1,ABCB1,"transport, inhibitor",,"100 µM, 5 (unit not given), pH 7, with: NMN",,inhibition,88%
C=C1CCC2C(C)(CO)C(=O)CCC2(C)C1C=CC1=CCOC1=O (centres unmarked),"UDP-glucuronosyltransferase 2B7 (UGT2B7, Homo sapiens, UniProt P16662)","AZT glucuronidation, inhibitor",human liver microsomes,with: zidovudine substrate,,Ki,22 µM
COc1cc2nc(N3CCN(C(=O)c4ccco4)CC3)nc(N)c2cc1OC,ABCB1,"transport, inhibitor",,"100 µM, 5 (unit not given), pH 7, with: NMN",,inhibition,79.1%
CC(C)OC(=O)[C@H](C)NP(=S)(Oc1ccc(CCN2CCOCC2)cc1)c1ccccc1 (some centres unmarked),"Lysosomal protective protein (CTSA, Homo sapiens, UniProt P10619)","substrate, LC-MS/MS",,"5 µM, pH 7.4, 37 °C",,half-life,45 min
N#CC[C@H](C1CCCC1)n1cc(-c2ncnc3[nH]ccc23)cn1,ABCB1,"transport, inhibitor",,"100 µM, 5 (unit not given), pH 7, with: NMN",,inhibition,-7.8%
c1ccc2cc3c(ccc4ccccc43)cc2c1,Cytochrome P450 2A13,"enzyme activity, inhibitor",,with: 10 µM coumarin,,IC50,> 200 µM
Clc1ccc(-c2cc(Cl)ccc2Cl)cc1,Nuclear receptor subfamily 1 group I member 3,"CYP2B6 mRNA induction, activator, qRT-PCR",differentiated HepaRG,24 h,baseline: phenobarbital,EC25,5 µM
O=C1CC(c2ccccc2)Oc2ccccc21 (centres unmarked),Cytochrome P450 2A13,"coumarin 7-hydroxylation, inhibitor",,"20 min, 37 °C, with: 10 µM coumarin",,IC50,4.3 µM
CC[C@H](C)[C@H](NC(=O)[C@H](Cc1ccccc1)NC(=O)[C@H](CCC(=O)O)NC(=O)[C@H](CCCCN)NC(=O)[C@H](C)NC(=O)[C@H](C)NC(=O)[C@H](CCC(N)=O)NC(=O)CNC(=O)[C@H](CCC(=O)O)NC(=O)[C@H](CC(C)C)NC(=O)[C@H](Cc1ccc(O)cc1)NC(=O)[C@H](CO)NC(=O)[C@H](CO)NC(=O)[C@@H](NC(=O)[C@H](CC(=O)O)NC(=O)[C@H](CO)NC(=O)[C@@H](NC(=O)[C@H](Cc1ccccc1)NC(=O)[C@@H](NC(=O)CNC(=O)[C@H](CCC(=O)O)NC(=O)[C@H](C)NC(=O)N(N)Cc1c[nH]cn1)[C@@H](C)O)[C@@H](C)O)C(C)C)C(=O)N[C@@H](C)C(=O)N[C@@H](Cc1c[nH]c2ccccc12)C(=O)N[C@@H](CC(C)C)C(=O)N[C@H](C(=O)N[C@@H](CCCNC(=N)N)C(=O)NCC(=O)N[C@@H](CCCNC(=N)N)C(=O)NCC(=O)O)C(C)C,"Dipeptidyl peptidase 4 (DPP4, Homo sapiens, UniProt P27487)",HPLC-UV,Tris-HCl,"0.1 mM, 8 h, pH 7.4, 37 °C, with: DPP4 16 nM",,remaining peptide,100%
C#CCOc1ccc2ccccc2c1,Cytochrome P450 2A13,"enzyme activity, inhibitor",,with: 10 µM coumarin,,IC50,0.4 to 10 µM
Cc1oncc1C(=O)Nc1ccc(C(F)(F)F)cc1,ABCB1,"transport, inhibitor",,"100 µM, 5 (unit not given), pH 7, with: NMN",,inhibition,13.7%
C#CCOCc1ccc2ccccc2c1,Cytochrome P450 2A13,"enzyme activity, inhibitor",,with: 10 µM coumarin,,IC50,30 to 90 µM
Oc1cc(Cl)c(-c2ccc(Cl)cc2Cl)c(Cl)c1O,cytochrome P450,GC-MS,"Syrian golden hamster, male, liver microsomes","50 µM, 2 h, 37 °C",,metabolite formation,not detected

# Some of these lines once more:
Compound,target,assay,system,conditions,how to read,measurement,result
O=S(=O)(NCCNC/C=C/c1ccc(Br)cc1)c1cccc2cnccc12,PKA,inhibitor,mouse zygotes,"20 µM, injection, hCG, 48 h post, early embryonic development",,dead embryos,0% and 5%
CN(C)C1CCN(C(=O)c2cc3ccccc3n2CC2CCCCC2)CC1,"CYP3A, human",,,"10 µM, 5 (unit not given)",,inhibition,41.7%
Cn1nccc1[C@]1(CNC(=O)c2ccc(F)c(F)c2-c2ccc(C(F)(F)F)cc2)NC(=O)NC1=O,"Cytochrome P450 2C8 (CYP2C8, Homo sapiens, UniProt P10632)",,human liver microsomes,with: amodiaquine,no inhibition up to value,IC50,> 20 µM
